Published values pooled from the literature.
Each numbered part is a random draw from the data of one study; scales do not carry over between parts. Changes are numbered by the printed parent chain.

Sample 1 — technique: RNA Bind-n-Seq; form: RNA; matrix: in vitro; concentration: 200 nM; notes: whole 134-nt RNA, ends assumed; together with: 150 mM LiCl; reference: input library; direction: higher = stronger binding; all molecules: 7-deaza-guanosine replaces G
Target: Ras GTPase-activating protein-binding protein 1, full length (G3BP1, Homo sapiens, UniProt Q13283)
Sequence of UniProt Q13283 (whole entry, looked up): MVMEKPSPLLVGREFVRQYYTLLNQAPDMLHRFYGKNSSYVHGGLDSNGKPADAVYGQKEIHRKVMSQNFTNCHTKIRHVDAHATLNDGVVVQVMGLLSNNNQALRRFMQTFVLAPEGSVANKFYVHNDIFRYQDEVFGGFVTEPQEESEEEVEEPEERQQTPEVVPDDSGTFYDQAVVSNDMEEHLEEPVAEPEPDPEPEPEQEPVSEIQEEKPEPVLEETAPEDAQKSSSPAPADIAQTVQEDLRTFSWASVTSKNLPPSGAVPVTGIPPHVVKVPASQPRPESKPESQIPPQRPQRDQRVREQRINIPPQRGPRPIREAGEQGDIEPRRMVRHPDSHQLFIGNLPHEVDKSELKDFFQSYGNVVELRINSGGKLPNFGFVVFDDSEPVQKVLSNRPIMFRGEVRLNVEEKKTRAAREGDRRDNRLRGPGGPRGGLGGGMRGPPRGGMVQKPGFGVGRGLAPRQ
Constant ends, left off below: GGGAGUUCUACAGUCCGACGAUC … UGGAAUUCUCGGGUGUCAAGG
Sequence | log2 enrichment
GCAGGAAGUAAAAACAAAUGGAAAUGCUUCGGAUAGUGGCAAGGGUGGGGGUUGCUAAGGAAAGGGUGGGAUGGGAGUGGGUAAAGAGUU | 0.293
AAGUCCUGUGCUACACAUCGUAUGUACCGAAUCGGGAAAAAGGGUUUUUGGGAGGGAAAGUAUUAUGUUACGCCGUUCGGAUCUGCACUU | -0.872
AAGUCCUGUGCUACACAUCGUAUGUACCGAAUCGGGAGGGAAAGGGAAAAAAAGGGAAAGUAUUAUGUUACGCCGUUCGGAUCUGCACUU | 0.446
GUCCUGUGCUACACAUCGUAUGUACCGAAUCAAACCCAAAUUUUUAAACCCCCCCAAAAAAGUAUUAUGUUACGCCGUUCGGAUCUGCAC | 1.11
CAAGUCCUGUGCUACACAUCGUAUGUACCGAAUCGGGGAAGGGGAAGGGAAGGGGAAAGUAUUAUGUUACGCCGUUCGGAUCUGCACUUC | -0.0252
CCUGUGCUACACAUCGUAUGUACCGAAUCGGGGAAAGGGGAAAAAAAGGGGUUUUUGGGGAAAGUAUUAUGUUACGCCGUUCGGAUCUGC | 0.694
GAAGAUUGGCUUAAAAUGGCUACUGUGAUGGGAACAGUGUCUUAGGGAGAUGCAGCUUGGACUUGAGGUAAAUUGAAUACUUUACAACUG | -0.131
CACAGACAACACGCACCCACACACACACAGAGGGAAGGGGUUGGGAUGGGGACAGGGUGCACAGCAGGGCGGGGUAGGACCCCAGCCCCU | -0.328

Sample 2 — target: CCNB1, cyclin fold, Cln2 fusion (human); technique: yeast growth competition, sequencing; matrix: yeast; notes: weak parent motif; reference: not given; direction: higher = stronger binding
Starting sequence: CDKN1B docking peptide (human); PSACRNLFGPVDH
Variant | normalised enrichment score
PSACRNLFHPVDH [G9H] | 1.11
PDACRNLFGPVDH [S2D] | 0.398
PSMCRNLFGPVDH [A3M] | 0.992
PSACRNLFGPVDY [H13Y] | 0.441
RSACRNLFGPVDH [P1R] | 0.817
PSYCRNLFGPVDH [A3Y] | 0.63
PSACRNLFGPVLH [D12L] | 0.491
PAACRNLFGPVDH [S2A] | 0.744
PSACRNLFVPVDH [G9V] | 0.491
PSACRNVFGPVDH [L7V] | 0.879
PSACFNLFGPVDH [R5F] | 0.37

Sample 3 — technique: protein-binding microarray; form: double-stranded DNA, one strand shown; matrix: in vitro; concentration: not given; direction: higher = stronger binding
Target: Protein C-ets-1 (ETS1, Homo sapiens, UniProt P14921, residues 1-441, full length assumed)
Sequence of UniProt P14921 (whole entry, looked up): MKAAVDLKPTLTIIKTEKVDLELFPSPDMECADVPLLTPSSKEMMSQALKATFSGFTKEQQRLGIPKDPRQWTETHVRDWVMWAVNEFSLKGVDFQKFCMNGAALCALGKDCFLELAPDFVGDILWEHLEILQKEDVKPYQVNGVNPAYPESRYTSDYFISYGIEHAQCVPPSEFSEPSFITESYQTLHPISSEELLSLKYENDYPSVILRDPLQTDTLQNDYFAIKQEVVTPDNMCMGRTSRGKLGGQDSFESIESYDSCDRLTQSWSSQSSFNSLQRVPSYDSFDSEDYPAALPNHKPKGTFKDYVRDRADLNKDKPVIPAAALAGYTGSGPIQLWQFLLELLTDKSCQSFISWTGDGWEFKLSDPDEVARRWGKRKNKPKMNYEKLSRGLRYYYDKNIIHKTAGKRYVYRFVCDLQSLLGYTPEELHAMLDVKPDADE
Notes: k-mer, scored over probes, only values ≥0.25
Sequence | E-score
ATGTCCTG | 0.281
CACCGACA | 0.258
CCTCGGAA | 0.293
CATCCTCG | 0.267
ACTTCCGC | 0.49
ACGGACAT | 0.263
AGGAAGCC | 0.398
GGAAAACC | 0.292
CCCGGACG | 0.398
GGATACAC | 0.307

Further values, each from its own experiment
Molecule | target | test | test system | conditions | scale | endpoint | result
PhoQ, residues 284 288 289 292 302 303 ALASRC | PhoP, residues 12 14 15 18 19 AQCLL (Escherichia coli, UniProt P23836) | Sort-seq, refers to: YFP reporter | E. coli | PhoQ-PhoP variant library, together with: 10 µM Mg2+ | reference: high Mg2+ state, higher = stronger signaling | fold induction | 0.571

Repeated from above (sample 2):
Variant | normalised enrichment score
PSYCRNLFGPVDH [A3Y] | 0.63
PSACRNLFGPVLH [D12L] | 0.491
PAACRNLFGPVDH [S2A] | 0.744
